# Measurements gathered from unrelated publications.
# Protocols differ between the studies behind these lines. ± gives the spread as reported.
# CYP2C19: Cytochrome P450 2C19 (CYP2C19, Homo sapiens, UniProt P33261)
# Sequence of UniProt P33261 (whole entry, looked up): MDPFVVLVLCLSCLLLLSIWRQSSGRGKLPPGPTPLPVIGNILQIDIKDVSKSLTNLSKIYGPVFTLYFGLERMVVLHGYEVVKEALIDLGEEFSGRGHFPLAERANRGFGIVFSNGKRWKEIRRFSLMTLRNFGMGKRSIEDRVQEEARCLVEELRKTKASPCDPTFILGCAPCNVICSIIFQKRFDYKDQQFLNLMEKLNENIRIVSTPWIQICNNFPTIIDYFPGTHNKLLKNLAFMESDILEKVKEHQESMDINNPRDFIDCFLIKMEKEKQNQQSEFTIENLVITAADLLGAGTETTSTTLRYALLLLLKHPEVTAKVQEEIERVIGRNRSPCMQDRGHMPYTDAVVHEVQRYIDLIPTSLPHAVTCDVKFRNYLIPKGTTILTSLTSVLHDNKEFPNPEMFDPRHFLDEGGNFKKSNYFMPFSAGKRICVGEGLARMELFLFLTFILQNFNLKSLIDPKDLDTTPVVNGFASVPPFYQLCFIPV
# Sequence of UniProt Q06520 (whole entry, looked up): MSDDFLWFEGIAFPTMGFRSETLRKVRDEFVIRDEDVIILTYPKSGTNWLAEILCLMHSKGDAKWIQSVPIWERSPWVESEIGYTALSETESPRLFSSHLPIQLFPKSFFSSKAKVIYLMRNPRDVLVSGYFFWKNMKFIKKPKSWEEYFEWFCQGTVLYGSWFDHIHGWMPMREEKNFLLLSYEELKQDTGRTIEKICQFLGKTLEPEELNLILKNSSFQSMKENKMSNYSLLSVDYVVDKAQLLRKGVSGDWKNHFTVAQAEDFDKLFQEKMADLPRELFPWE
# Sequence of UniProt P16662 (whole entry, looked up): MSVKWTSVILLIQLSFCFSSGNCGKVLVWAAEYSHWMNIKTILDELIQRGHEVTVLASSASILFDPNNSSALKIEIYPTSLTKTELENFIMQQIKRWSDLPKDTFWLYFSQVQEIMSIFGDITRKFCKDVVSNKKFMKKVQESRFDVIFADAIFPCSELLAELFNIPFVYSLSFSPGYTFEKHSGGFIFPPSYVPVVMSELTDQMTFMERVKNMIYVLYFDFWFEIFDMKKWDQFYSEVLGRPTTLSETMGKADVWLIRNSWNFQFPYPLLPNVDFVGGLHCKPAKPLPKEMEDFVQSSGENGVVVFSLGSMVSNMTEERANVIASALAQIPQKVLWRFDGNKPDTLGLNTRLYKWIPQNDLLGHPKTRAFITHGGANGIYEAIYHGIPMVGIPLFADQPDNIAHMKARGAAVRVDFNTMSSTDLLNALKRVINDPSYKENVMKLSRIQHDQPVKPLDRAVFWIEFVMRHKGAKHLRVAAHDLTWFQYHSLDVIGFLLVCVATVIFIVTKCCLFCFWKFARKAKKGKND
SMILES,target or system,test,test system,setting,how to read,quantity,value
CN[C@](C)(C[18F])C(=O)O,SK-OV-3 tumour model,,"host not given, bone","15 min, tumour-bearing",,tracer uptake,2.3 %ID/g
C=C(C)[C@@H]1CCC(CO)=C[C@H]1c1c(O)cc(CCCCC)cc1O,CYP2C19,,,"concentration not given, single dose, together with: fluconazole 200 mg once daily",,half-life,19.3 h
CC1(C)C=Cc2c(cc3oc(-c4ccccc4)cc(=O)c3c2O)O1,differentiated SH-SY5Y,MTT,,100 µM,baseline: control,viability,86.9 ± 5.4%
COc1ccc(CNc2nc(N3CCC[C@H]3CO)ncc2C(=O)NN)cc1Cl,Salmonella typhimurium,,TA97a,"500 µg/plate, 48 h",,revertant count,91 ± 5
CSCC[C@@H]1NC(=O)[C@@H]2CSSC[C@H](NC(=O)[C@H](CO)NC(=O)[C@H](C)N)C(=O)N[C@@H](CCCNC(=N)N)C(=O)N[C@@H]([C@@H](C)O)C(=O)N3CCC[C@H]3C(=O)N[C@@H](CCCCN)C(=O)N[C@@H](CC(=O)O)C(=O)N[C@H]3CSSC[C@H](NC(=O)[C@H](CCCCN)NC(=O)[C@H](CCCNC(=N)N)NC(=O)[C@H](CC(N)=O)NC1=O)C(=O)N[C@@H](CCCCN)C(=O)N[C@H]1CSSC[C@H](NC(=O)[C@@H]4CCCN4C(=O)[C@H](CC(=O)O)NC(=O)[C@H](C)NC3=O)C(=O)N[C@@H](C)C(=O)N[C@@H](CCCCN)C(=O)N[C@@H](CCC(=O)O)C(=O)N[C@@H]([C@@H](C)O)C(=O)NCC(=O)N[C@@H](CSSC[C@@H](C(N)=O)NC(=O)[C@H](CCCNC(=N)N)NC(=O)[C@H](CC(N)=O)NC1=O)C(=O)N1CCC[C@H]1C(=O)N[C@@H](Cc1ccc(O)cc1)C(=O)NCC(=O)N[C@@H](CCCCN)C(=O)N2,,,"DA rat pristane-induced arthritis, serum","subcutaneous, 0.1 mg/kg every other day, 21 days",,CO2,19.8 mmol/L
CCC(=O)N(C)c1ccc(Cl)c(Cl)c1,Salmonella typhimurium,Ames test,TA1537,"0.10 mg/plate, without S9 activation",,revertants,2 ± 2.6 revertants/plate
CC(C)C[C@H](NC(=O)[C@H](CC(N)=O)NC(=O)[C@H](CCCCN)NC(=O)[C@H](CC(C)C)NC(=O)[C@H](Cc1ccccc1)NC(=O)CNC(=O)[C@H](CC(C)C)NC(=O)[C@@H](N)Cc1ccccc1)C(=O)N[C@@H](Cc1ccccc1)C(N)=O,Huh-7.5.1,"cell growth or viability, MTT",,48 h,,CC50,79.8 µg/mL
COc1c2c(cc3oc(-c4ccccc4)cc(=O)c13)OC(C)(C)C=C2,differentiated SH-SY5Y,MTT,,100 µM,baseline: control,viability,81.5 ± 1.3%
CC[C@H](C)C(=O)N1CCC(NC(=O)Nc2ccc(OC(F)(F)F)c(F)c2)CC1,,,healthy volunteers,"oral, 2 mg single dose, 14 (unit not given)",,subjects with moderate TEAE,16.7%
COc1cc(C(=O)NCCOCCOCCOCCNC(=O)c2ccc([18F])nc2)ccc1NC(=O)C1NC(CC(C)(C)C)C(C#N)(c2ccc(Cl)cc2F)C1c1cccc(Cl)c1F (centres unmarked),HepG2 tumour model,,"host not given, bone","2 h, tumour-bearing",,tracer uptake,0.72 %ID/g
Cc1ccc(-n2cc(C3(c4ccc5c(c4)OC(F)(F)O5)CC3)nn2)cc1-c1cccc(C(=O)O)c1,,,human liver microsomes,,baseline: analogous amide,intrinsic clearance fold increase,~5
COc1c(C(=O)/C=C/c2ccccc2)ccc2occc12,differentiated SH-SY5Y,MTT,,10 µM,baseline: control,viability,103 ± 3.4%
CNc1nc(SC)nc2ccccc12,,,human liver microsomes,,,intrinsic clearance,9.7 mL/min/g
CN(C)C(CNC(=O)Nc1cc(C(F)(F)F)ccc1N1CCOCC1)c1ccncc1 (centres unmarked),,,"mouse, serum","intraperitoneal, 360 mg/kg single dose",,serum total bilirubin,0.4 mg/dL
CN(C)CC1CCCCC1(O)c1cccc(O)c1 (centres unmarked),human P-glycoprotein,,Caco-2 TC7 monolayer,"100 µM, 3 h, apical pH 7.4, basolateral pH 7.4, together with: cyclosporine A 10 µM",,Papp B-to-A,15.2 ± 0.7 ×10⁻⁶ cm/s
O=C(O)CCC(NP(=O)(O)OCCC[C@@H](NC(=O)CCC(NC(=O)c1ccc([18F])cc1)C(=O)O)C(=O)O)C(=O)O (some centres unmarked),CWR22Rv1 tumour model,,"host not given, tumour","intravenous, 1 h, tumour-bearing",,tracer uptake,1.54 %ID/g
CCCCCc1cc(O)c2c(c1)OC(C)(C)C1CCC(CO)=CC21 (centres unmarked),"UGT2B7 (Homo sapiens, UniProt P16662)","enzyme activity, inhibitor",pooled human liver microsomes,"up to 100 µM, together with: zidovudine",,inhibition,≤ 50%
COc1ccc(CNc2nc(N3CCC[C@H]3CO)ncc2C(=O)NNC(=O)c2cnc(N3CCC[C@H]3CO)nc2NCc2ccc(OC)c(Cl)c2)cc1Cl,Salmonella typhimurium,,TA98,"125 µg/plate, 48 h, together with: rat liver S9",,revertant count,28 ± 8
O=C(O)CCC(NP(=O)(O)OCCC[C@@H](NC(=O)CCC(NC(=O)CCCCCNC(=O)CCCCCNC(=O)c1ccc([18F])cc1)C(=O)O)C(=O)O)C(=O)O (some centres unmarked),CWR22Rv1 tumour model,,"host not given, tumour","intravenous, 1 h, tumour-bearing",,tracer uptake,2.92 %ID/g
C=C(C)[C@@H]1CCC(C(=O)O)=C[C@H]1c1c(O)cc(CCCCC)cc1O,CYP2C19,,,"concentration not given, single dose, together with: fluconazole steady state",,decrease in Cmax,48%
Nc1nc2c([C@@H]3O[C@@H]4COP(=O)(O)O[C@H]5[C@@H](O)[C@H](c6scc7c(=O)[nH]c(N)nc67)O[C@@H]5COP(=O)(O)O[C@H]4[C@H]3O)scc2c(=O)[nH]1,,,water,,,absorption maximum,317 nm
N[C@]1(c2ccccc2Cl)CCC[C@H](O)C1=O,,,Wistar rats,"intravenous, 20 mg/kg, 10 min",,plasma concentration,12000 ± 364 ng/mL
O=C(O)CCC(NP(=O)(O)OCCC[C@@H](NC(=O)CCC(NC(=O)CCCCCNC(=O)c1ccc([18F])cc1)C(=O)O)C(=O)O)C(=O)O (some centres unmarked),CWR22Rv1 tumour model,,"host not given, kidney","intravenous, 2 h, tumour-bearing",,tracer uptake,21.5 %ID/g
C[C@@](O)(C(F)F)[C@H](NC(=O)c1ccc(C#CC#CC2CC2)cc1)C(=O)NO,,,"rat, plasma","intravenous, 40 mg/kg",,Vd,2 L/kg
Nc1nc2c([C@@H]3O[C@@H]4COP(=O)(O)O[C@H]5[C@@H](O)[C@H](n6cnc7c(=O)[nH]c(N)nc76)O[C@@H]5COP(=O)(O)O[C@H]4[C@H]3O)scc2c(=O)[nH]1,,,water,,,absorption maximum,317 nm
C[C@]12CC[C@H](O)CC1CCC1C2[C@H](O)C(=O)[C@]2(C)[C@@H](c3ccc(=O)oc3)CC[C@]12O (some centres unmarked),"SULT2A1 (Homo sapiens, UniProt Q06520)",substrate,recombinant human enzyme,"10 µM, 60 min, pH 7.4",,sulfation rate,0.263 nmol/min/mg enzyme

# For quick reference, copied from above:
SMILES,target or system,test,test system,setting,how to read,quantity,value
O=C(O)CCC(NP(=O)(O)OCCC[C@@H](NC(=O)CCC(NC(=O)CCCCCNC(=O)c1ccc([18F])cc1)C(=O)O)C(=O)O)C(=O)O (some centres unmarked),CWR22Rv1 tumour model,,"host not given, kidney","intravenous, 2 h, tumour-bearing",,tracer uptake,21.5 %ID/g
CN(C)C(CNC(=O)Nc1cc(C(F)(F)F)ccc1N1CCOCC1)c1ccncc1 (centres unmarked),,,"mouse, serum","intraperitoneal, 360 mg/kg single dose",,serum total bilirubin,0.4 mg/dL
